Results from different studies.
Numbers after ± are the reported error.

| Structure (SMILES) | assay | system | setting | tissue uptake |
| --- | --- | --- | --- | --- |
| CN[C@](C)(C[18F])C(=O)O | – | SCID mouse MDA-MB-468 xenograft, spleen | 120 min, post injection | 4.7 ± 1.4 %ID/g |
| CC[C@H](C)[C@@H]1NC(=O)[C@@H](NC(=O)CNC(=O)c2ccc(F)cc2)CSSC[C@@H]2NC(=O)[C@H](C)NC(=O)CNC(=O)[C@@H]3CCCN3C(=O)[C@@H]3CSSC[C@@H](C(=O)NCC(=O)O)NC(=O)[C@H](Cc4ccc(O)cc4)NC(=O)CNC(=O)[C@H](CC(N)=O)NC(=O)CNC(=O)[C@H](CCCNC(=N)N)NC(=O)[C@H](CSSC[C@H](NC(=O)[C@H](CCCNC(=N)N)NC(=O)[C@H](Cc4ccccc4)NC(=O)[C@H](CC(C)C)NC(=O)[C@H](CC(C)C)NC(=O)[C@H]([C@@H](C)O)NC(=O)CNC(=O)[C@H](CC(C)C)NC(=O)[C@H](CC(=O)O)NC(=O)[C@H]([C@@H](C)O)NC(=O)[C@H](CCCNC(=N)N)NC(=O)[C@H](CCSC)NC(=O)[C@H](CC(N)=O)NC(=O)[C@H](CC(C)C)NC1=O)C(=O)N[C@@H](CCCNC(=N)N)C(=O)N[C@@H](CCCNC(=N)N)C(=O)N[C@@H](CC(=O)O)C(=O)N[C@@H](CO)C(=O)N[C@@H](CC(=O)O)C(=O)N3)NC(=O)[C@H]([C@@H](C)CC)NC2=O [fluorine-18 labelled] | γ-counting | mouse, stomach | – | 1.6 ± 0.4 %ID/g |
| N=C(N)NCc1ccc(C(=O)NCCCC[C@H](NC(=O)CCCCCCC(=O)NCCCC[C@H](NC(=O)N[C@@H](CCC(=O)O)C(=O)O)C(=O)O)C(=O)O)cc1[131I] | – | SCID mouse, PC-3 xenografts, brain | 21 h | 0.01 ± 0.01 %ID/g |
| C=Cc1cc(O)cc2nc(-c3ccc(O)c([76Br])c3)oc12 | – | female C57BL/6 mouse, blood | 3 h, high dose | 0.21 ± 0.06 %ID/g |
| CCCC[C@H](NC(=O)CN1CCC(NC(=O)CN2CCC(NC(=O)CN3CCN(CC(=O)O)CCN(CC(=O)O)CCN(CC(=O)O)CC3)CC2)CC1)C(=O)N[C@H]1CC(=O)NCCCC[C@@H](C(N)=O)NC(=O)[C@H](Cc2c[nH]c3ccccc23)NC(=O)[C@H](CCCNC(=N)N)NC(=O)[C@@H](Cc2ccccc2)NC(=O)[C@H](Cc2c[nH]cn2)NC1=O [gallium-68 labelled] | biodistribution | C57BL/6J mouse male tumour-bearing, seminal vesicle | 1 h post injection, unblocked | 0.1 ± 0.1 %ID/g |
| N=C(N)NCc1ccc(C(=O)NCCCC[C@H](NC(=O)N[C@@H](CCC(=O)O)C(=O)O)C(=O)O)cc1[131I] | – | SCID mouse, PC-3 xenografts, bone | 14 h | 0.03 ± 0.01 %ID/g |
| C[S]1CC[S]2CC[P](CO)(CO)[99Tc+]12.[C-]#[O+].[C-]#[O+].[C-]#[O+] | – | female CF-1 mouse, small intestine | intravenous, 24 h | 0.3 %ID/g |
| N=C(N)NCc1ccc(C(=O)NCCCC[C@H](NC(=O)N[C@@H](CCC(=O)O)C(=O)O)C(=O)O)cc1[211At] | – | SCID mouse, PC-3 xenografts, liver | 1 h | 8.25 ± 2.47 %ID/g |
| O=C(O)CC[C@H](NC(=O)O[C@@H](CCCCNC(=O)c1ccc([18F])cc1)C(=O)O)C(=O)O | – | mouse, PC-3 PIP/flu xenografts, lung | 180 min | 0.14 ± 0.04 %ID/g |

Some of these lines once more:
| Structure (SMILES) | assay | system | setting | tissue uptake |
| --- | --- | --- | --- | --- |
| N=C(N)NCc1ccc(C(=O)NCCCC[C@H](NC(=O)N[C@@H](CCC(=O)O)C(=O)O)C(=O)O)cc1[131I] | – | SCID mouse, PC-3 xenografts, bone | 14 h | 0.03 ± 0.01 %ID/g |
